Assay results collected from several papers.
Each line is one published result; not all experiments were run side by side.

SMILES = CC1=CC(C)=[N+]2C1=Cc1ccc(CCC(=O)N3CCN(C(=O)c4cc(Cc5n[nH]c(=O)c6ccccc56)ccc4F)CC3)n1[B-]2(F)F; test = HPLC; measurement = chromatographic logP; result = 2.9
SMILES = O=C1Nc2ccccc2C1=NN=Cc1ccc(F)cc1; test = shake flask; system = water; measurement = logP; result = 2.23
SMILES = O=C(NCCN1CCOCC1)c1cc2c3ccccc3n3c(=O)ccc(n1)c23; test = absorbance; measurement = logP; result = 1.03
SMILES = COc1ccc(-n2c(=O)c(C(=O)C3C(=O)CCCC3=O)nc3c(C)cccc32)cc1; test = shake flask; measurement = logP; result = 2.8
SMILES = CCCCCNCC(=O)O; test = shake flask; system = water; setting = 24 h; measurement = logP; result = -1.27
SMILES = COc1ccc(-n2c(=O)c(C(=O)C3C(=O)CCCC3=O)nc3ccccc32)cc1; test = shake flask; measurement = logP; result = 2.6
SMILES = CCC(C)NCC(=O)O (stereo not shown); test = shake flask; system = water; setting = 24 h; measurement = logP; result = -1.47
SMILES = COc1ccc(-c2csc(N/N=C(\C)c3cc(O)cc(O)c3)n2)cc1; test = shake flask; system = water; measurement = logP; result = 1.11
SMILES = COC(=O)C1=CNC=C(C(=O)OC)C1c1ccc(F)c(C(F)(F)F)c1; measurement = logP; result = 3.45
SMILES = CCCCCCCCNCC(=O)O; test = shake flask; system = water; setting = 24 h; measurement = logP; result = 0.24

Excerpt of the above:
SMILES = COc1ccc(-c2csc(N/N=C(\C)c3cc(O)cc(O)c3)n2)cc1; test = shake flask; system = water; measurement = logP; result = 1.11
